Published values collected from several papers.
Lines come from different studies, so protocols differ. ± marks the error that the study gave.

Structure (SMILES) | cell line | assay | conditions | viability
CC[C@H](C)[C@H](NC(=O)[C@H](CCC(=O)O)NC(=O)[C@@H](NC(=O)[C@H](CCC(N)=O)NC(=O)[C@@H](N)CCCCN)[C@@H](C)CC)C(=O)N[C@@H](CCCCN)C(=O)N[C@@H](CCCCN)C(=O)N[C@@H](Cc1ccccc1)C(=O)N[C@@H](CCCCN)C(=O)O | mouse cardiomyocytes | – | 250 µM, 30 min, pH 6.5, together with: 120 min OGD/acidosis | 14.6%
CC(C)C[C@@H](NC(=O)CCNc1ccc([N+](=O)[O-])c2nonc12)C(=O)N[C@H](CC(C)C)C(=O)N[C@H](CC(C)C)C(=O)N[C@H](CC(C)C)C(=O)N[C@H](Cc1ccc(OP(=O)(O)O)cc1)C(=O)O | HS5 | MTT | 200 µM, 24 h | > 60%
c1cc(Nc2c3c(nc4ccccc24)CCCC3)c2cccnc2c1 | SH-SY5Y | MTT | 50 µM, 1 h pretreatment, 10% FBS, together with: H2O2 | 29.3 ± 0.98%
COC(=O)C1=CO[C@@H](OC(C)=O)[C@@H]2C(Cn3cc(COCc4ccccc4)nn3)=CC[C@H]12 | SK-N-SH | neuroprotection, MTT | 0.3 µM, 24 h, together with: 250 µM H2O2 | 67.1 ± 0.2%
COc1ccnc(Nc2c3c(nc4ccccc24)CCC(C)C3)c1 (stereo not drawn) | SH-SY5Y | MTT | 50 µM, 1 h pretreatment, 10% FBS, together with: H2O2 | 41.2 ± 3.32%
COC(=O)C1=CO[C@@H](OC(C)=O)[C@@H]2C(Cn3cc(CCO[Si](c4ccccc4)(c4ccccc4)C(C)(C)C)nn3)=CC[C@H]12 | SK-N-SH | neuroprotection, MTT | 0.6 µM, 24 h, together with: 250 µM H2O2 | 53.2 ± 0.5%
Clc1ccc(Nc2c3c(nc4ccccc24)CCCC3)cc1 | SH-SY5Y | MTT | 50 µM, 1 h pretreatment, 10% FBS, together with: H2O2 | 39.3 ± 1.66%
COC(=O)C1=CO[C@@H](OC(C)=O)[C@@H]2C(Cn3cc(-c4ccc(F)cc4)nn3)=CC[C@H]12 | SK-N-SH | neuroprotection, MTT | 0.15 µM, 24 h, together with: 250 µM H2O2 | 64.9 ± 1.2%
CC(=O)N[C@@H](CC(C)C)C(=O)N[C@H](C(=O)N[C@@H](Cc1ccccc1)C(=O)N[C@H]1CC(=O)NCCCC[C@@H](C(=O)N[C@@H](CCC(N)=O)C(=O)N[C@@H](CC(C)C)C(=O)N[C@H](C(=O)N[C@@H](CO)C(=O)NCCOCCOCC(=O)N[C@@H](CCCCN)C(N)=O)[C@@H](C)O)NC(=O)[C@H](Cc2c[nH]c3ccccc23)NC(=O)[C@H](Cc2ccc(O)cc2)NC(=O)[C@H](Cc2c[nH]cn2)NC1=O)[C@@H](C)O | SJSA-1 | MTT | concentration not given | no effect

Excerpt of the above:
Structure (SMILES) | cell line | assay | conditions | viability
CC(C)C[C@@H](NC(=O)CCNc1ccc([N+](=O)[O-])c2nonc12)C(=O)N[C@H](CC(C)C)C(=O)N[C@H](CC(C)C)C(=O)N[C@H](CC(C)C)C(=O)N[C@H](Cc1ccc(OP(=O)(O)O)cc1)C(=O)O | HS5 | MTT | 200 µM, 24 h | > 60%
